Measurements collected from several papers.
Parts stem from different laboratories: compare values within a part only. Values joined by “and” are separate records of one study, mostly repeats; a detail may differ.
UniProt P42684, sequence (whole entry, looked up): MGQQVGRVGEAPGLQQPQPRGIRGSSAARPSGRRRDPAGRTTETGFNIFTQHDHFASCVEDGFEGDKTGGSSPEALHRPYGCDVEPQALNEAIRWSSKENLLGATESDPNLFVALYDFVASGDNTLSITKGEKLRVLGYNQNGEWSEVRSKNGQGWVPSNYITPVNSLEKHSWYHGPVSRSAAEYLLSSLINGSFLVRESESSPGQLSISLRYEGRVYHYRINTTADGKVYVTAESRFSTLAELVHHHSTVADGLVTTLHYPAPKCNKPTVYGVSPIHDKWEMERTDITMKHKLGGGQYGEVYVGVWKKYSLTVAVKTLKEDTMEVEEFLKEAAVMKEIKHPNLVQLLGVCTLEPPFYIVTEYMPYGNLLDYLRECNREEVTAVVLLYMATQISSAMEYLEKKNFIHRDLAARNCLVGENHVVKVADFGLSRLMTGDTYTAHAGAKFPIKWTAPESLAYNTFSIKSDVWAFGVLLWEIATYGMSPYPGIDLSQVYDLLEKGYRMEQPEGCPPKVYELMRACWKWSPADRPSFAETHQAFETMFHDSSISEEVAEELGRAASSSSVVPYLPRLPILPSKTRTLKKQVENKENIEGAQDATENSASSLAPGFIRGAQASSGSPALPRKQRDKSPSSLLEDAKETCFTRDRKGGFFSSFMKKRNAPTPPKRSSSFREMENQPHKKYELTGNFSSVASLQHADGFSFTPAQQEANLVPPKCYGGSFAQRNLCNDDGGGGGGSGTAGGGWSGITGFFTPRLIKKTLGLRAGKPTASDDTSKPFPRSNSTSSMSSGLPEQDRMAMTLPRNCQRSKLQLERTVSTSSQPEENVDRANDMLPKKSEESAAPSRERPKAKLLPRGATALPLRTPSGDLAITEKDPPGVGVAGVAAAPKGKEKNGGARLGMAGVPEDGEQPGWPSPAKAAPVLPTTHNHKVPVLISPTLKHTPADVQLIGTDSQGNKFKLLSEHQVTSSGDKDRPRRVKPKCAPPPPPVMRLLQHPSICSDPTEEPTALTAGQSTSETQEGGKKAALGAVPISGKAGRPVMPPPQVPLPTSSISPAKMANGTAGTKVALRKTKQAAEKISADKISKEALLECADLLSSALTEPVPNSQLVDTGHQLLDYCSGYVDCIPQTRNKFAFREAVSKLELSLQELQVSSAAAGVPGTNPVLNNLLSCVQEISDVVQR

Series 1 — cell line: mouse MPNST tumor cells; technique: high-content immunofluorescence imaging; measured: nuclear SOX9; concentration: 10 µM; time: 12 h; notes: mean of 2 replicates; baseline: DMSO control; direction: higher = more nuclear SOX9
`CNCc1ccc(-c2[nH]c3cc(F)cc4c3c2CCNC4=O)cc1` — result for “nuclear SOX9 intensity”: 183 % of DMSO.
Under “nuclear SOX9 intensity”, `Nc1ncnc2c1nc(Br)n2[C@@H]1O[C@@H]2COP(=O)(O)O[C@H]2[C@H]1O` is recorded as 88.5 % of DMSO.
`Fc1ccc(Nc2nc(-c3ccccc3)cs2)cc1` — result for “nuclear SOX9 intensity”: 80.3 % of DMSO.
`CS(=O)(=O)Nc1ccc([N+](=O)[O-])cc1OC1CCCCC1`: “nuclear SOX9 intensity” 92.3 % of DMSO.
Under “nuclear SOX9 intensity”, `COc1cc2nc(N3CCN(C(=O)COc4c(OC)cccc4C(C)C)CC3)nc(N)c2cc1OC` is recorded as 192 % of DMSO.
Under “nuclear SOX9 intensity”, `O=C(O)CCCC[C@@H]1SC[C@@H]2NC(=O)N[C@@H]21` is recorded as 97.5 % of DMSO.
For `CC(C)NC[C@H](O)COc1ccc(CC(N)=O)cc1`, “nuclear SOX9 intensity” read 94.4 % of DMSO.
Under “nuclear SOX9 intensity”, `OC(CCCN1CCCCC1)(c1ccccc1)c1ccccc1` is recorded as 97.2 % of DMSO and 117 % of DMSO.

Series 2 — cell line: HaCaT; concentration: 100 µM; time: 18 h
For `CCCCOc1ccc(C(=O)CCN2CCCCC2)cc1`, the viability was 58%.
The viability of `O=C(NCCO[N+](=O)[O-])c1cccnc1` is reported as 117%.
`CNCCC=C1c2ccccc2CCc2ccccc21` gave a viability of 20.1%.
With `Fc1ccc([C@@H]2CCNC[C@H]2COc2ccc3c(c2)OCO3)cc1` the viability was 16.9%.
The viability of `Cc1cccc(Nc2ccccc2C(=O)O)c1C` is reported as 95.1%.
`C[C@]12CC[C@@H]3c4ccc(O)cc4CC[C@H]3[C@@H]1C[C@@H](O)[C@@H]2O` has a viability of 92%.
`Nc1nc2[nH]cc(CCc3ccc(C(=O)N[C@@H](CCC(=O)O)C(=O)O)cc3)c2c(=O)[nH]1` has a viability of 107%.
`Cc1cc(Nc2ncc(Cl)c(Nc3ccccc3S(=O)(=O)C(C)C)n2)c(OC(C)C)cc1C1CCNCC1` gave a viability of 17%.

Series 3 — technique: Vi-Cell counting; time: 6 days; baseline: DMSO
SMILES: CC(C)C[C@H]1NC(=O)[C@H](N(C)C(=O)[C@@H](CC2CCC2)NC(=O)[C@H]2C[C@H](F)CN2C(=O)C2(C(F)(F)F)CC(F)(F)C2)CCCCNC(=O)C2(CC2)NC(=O)[C@@H](Cc2cc(Cl)ccc2Cl)N(C)C1=O
The cell count was 0.95 and 0.963 and 0.873 (A549; 600 nM).
For HCC4006; 60 nM: cell count read 0.909 and 0.957 and 1.06.
For NCI-H1299; 60 nM: cell count read 1.21 and 0.95 and 1.06.
The cell count was 0.898 and 1.34 and 1.16 (HCC4006; 200 nM).
The cell count was 0.844 and 0.982 and 1.03 (NCI-H446; 600 nM).

Mixed results
`COc1ccc2c(c[n+](C)c3c4cc5c(cc4ccc23)OCO5)c1OC` has a remaining activity of 96.7% (Tyrosine-protein kinase ABL2 (ABL2, Homo sapiens, UniProt P42684); enzyme activity, inhibitor; 0.5 µM; baseline: control).

Some of these lines once more (series 2):
`C[C@]12CC[C@@H]3c4ccc(O)cc4CC[C@H]3[C@@H]1C[C@@H](O)[C@@H]2O` has a viability of 92%.
